Values quoted from earlier work that unrelated publications cite.
Lines come from different studies, so protocols differ. ± gives the spread as reported. *: point of attachment.

The Km of `O=P(O)(O)OC[C@H]1O[C@H](OP(=O)(O)OP(=O)(O)O)[C@H](O)[C@@H]1O` is reported as 39 ± 2 µM (Trypanosoma cruzi HGPRT isoform C; enzyme activity, substrate; IMP formation, added: hypoxanthine 100 µM).
For `Oc1ccc(/C=C/c2ccc3ccccc3c2)cc1O`, “emission maximum shift” read greater than 100 nm (Transthyretin, fibrils (TTR, Homo sapiens, UniProt P02766); fluorescence; baseline: native over misfolded protofibrillar TTR).
`O=c1[nH]c(=O)c2nc[nH]c2[nH]1` gave a Km of 150 ± 10 µM (Trypanosoma cruzi HGPRT isoform C; enzyme activity, substrate; added: PRPP 1 mM).
With `O=C(O)c1cc2cc(Br)ccc2oc1=O` the inhibition was 100% (Ionotropic glutamate receptor NMDA 1/2D (Rattus norvegicus, UniProt P35439+Q62645); concentration not given).
For `[I-].[K+]`, the iodide influx was no more than 12% (SLC4A1 (Homo sapiens, UniProt P02730); concentration not given, pH 7.2, 0 °C, citrate replacing chloride; baseline: chloride efflux).
`O=c1ccn([C@@H]2O[C@H](CO)[C@@H](O)[C@H]2O)c(=O)[nH]1` gave a Km of 4.1 ± 2.1 µM (nucleoside transporter U2; Trypanosoma brucei, procyclic forms).
For `CNC(=O)[C@@]12C[C@@H]1[C@@H](n1cnc3c(NC)nc(C#Cc4ccc(Cl)s4)nc31)[C@H](O)[C@@H]2O`, the inhibition was 24 ± 13% (ADORA2A (Homo sapiens, UniProt P29274); 10 µM).
Under “specific binding VS”, `CC(=O)N(Cc1ccccc1O[11CH3])c1cnccc1Oc1ccccc1` is recorded as 95.5 mL/cm³ (TSPO; rhesus monkey cerebellum; concentration not given).
`C=CC1=C(C)/C(=C/c2[nH]c(Cc3[nH]c(/C=C4\NC(=O)C(C)=C4C=C)c(C)c3CCC(=O)O)c(CCC(=O)O)c2C)NC1=O` has a Km of 0.2 to 26 µM (UGT1A1 (Homo sapiens, UniProt P22309); glucuronidation, substrate).
`CC(=O)[C@H]1CC[C@H]2[C@@H]3CCC4=CC(=O)CC[C@]4(C)[C@H]3CC[C@]12C` gave a Km of 10.5 ± 1.7 µM (CYP17A1 (Homo sapiens, UniProt P05093); 17alpha-hydroxylation, substrate).
For `CC[C@H](C)[C@H](NC(=O)[C@H](CCCCN)NC(=O)[C@H](Cc1c[nH]cn1)NC(=O)[C@@H](N)CCCNC(=N)N)C(=O)N[C@@H](CC(C)C)C(=O)N[C@@H](Cc1c[nH]cn1)C(=O)N[C@@H](CCCNC(=N)N)C(=O)N[C@@H](CC(C)C)C(=O)N[C@@H](CC(C)C)C(=O)N[C@@H](CCC(N)=O)C(=O)N[C@@H](CCC(=O)O)C(=O)NCC(=O)N[C@@H](CO)C(=O)O`, the binding stoichiometry was 1.03 ± 0.06 (Nuclear receptor subfamily 1 group I member 3, with RXR (Mus musculus, UniProt O35627); ITC; concentration not given, pH 7.2, 25 °C).
For `CC(=O)O`, the Km was 14000 ± 610 µM (ADP-forming acetyl-CoA synthetase (Entamoeba histolytica, UniProt C4LUV9); substrate).
`Nc1nc2c(nc(Sc3ccc(Cl)cc3)n2C2O[C@@H]3COP(=O)(O)O[C@H]3[C@H]2O)c(=O)[nH]1` (stereo in doubt): “Km or Ki” 16.7 µM (PDE1A; cyclic nucleotide hydrolysis, substrate or inhibitor, isothermal titration calorimetry).
`CCOC(=O)c1ncn2c1CN(C)C(=O)c1cc(F)ccc1-2` has an efficacy of 115 ± 4% (GABAA receptor α2β3γ2; modulator, two-electrode voltage clamp; Xenopus oocytes; 1 to 10 µM, added: GABA at EC50; baseline: GABA response).
For `COc1ccc(/C=C\c2cc(OC)c(OC)c(OC)c2)cc1O`, the inhibition was 75 to 85% (tubulin; [3H]colchicine binding, inhibitor; 1.0 µM, added: 1.0 µM tubulin, 5.0 µM [3H]colchicine).
The Km of `N[C@@H](CO)C(=O)O` is reported as 100 µM (serine hydroxymethyltransferase, human; substrate).
Under “Km or Ki”, `CO[C@@H]1[C@@H]2OP(=O)(O)OC[C@H]2O[C@H]1n1c(Sc2ccc(Cl)cc2)nc2c(N)ncnc21` is recorded as 14.5 µM (PDE2A; cyclic nucleotide hydrolysis, substrate or inhibitor, isothermal titration calorimetry).
`CCc1nc(N)nc(N)c1-c1ccc(Cl)cc1` has a selectivity ratio of 1000 (dihydrofolate reductase; baseline: mammalian over Plasmodium enzyme).
The Km of `Nc1nc2nc[nH]c2c(=O)[nH]1` is reported as 14 ± 1 µM (Trypanosoma cruzi HGPRT isoform C; enzyme activity, substrate; GMP formation, added: PRPP 1 mM).
Under “Km or Ki”, `Nc1nc2c(ncn2[C@@H]2O[C@@H]3COP(=O)(O)O[C@H]3[C@H]2O)c(=O)[nH]1` is recorded as 2.01 µM (PDE5; cyclic nucleotide hydrolysis, substrate or inhibitor, isothermal titration calorimetry).
For `Cbz-Phe-Arg-{AMC} (Z-FR-AMC; Cbz = O=C(OCc1ccccc1)*; AMC = Cc1cc(=O)oc2cc(N*)ccc12)`, the Km was 180 µM (Chymotrypsinogen A, activated (alpha-chymotrypsin) (Bos taurus, UniProt P00766); substrate).
For `O=C(Nc1ncnc2c1ncn2[C@@H]1O[C@@H]2COP(=O)(O)OC2C1O)c1ccccc1` (stereo in doubt), “Km or Ki” read 9.86 µM (PDE1B; cyclic nucleotide hydrolysis, substrate or inhibitor, isothermal titration calorimetry).
With `COc1ccc(C=CC(=O)c2c(O)cc(OC)cc2OC)cc1` the effective concentration was 320 µM (NF-κB; reporter gene and DNA binding, inhibitor; added: TNFα).
`O=c1[nH]c(=O)c2[nH]c(=O)c(=O)n(C[C@H](O)[C@H](O)[C@H](O)CO)c2[nH]1` gave a Ks of 25 ± 4 µM (ribH (Mycobacterium tuberculosis, UniProt P9WHE9); enzyme kinetics; pH 7.0, added: substrate 2 fixed, 1 varied; lower = tighter substrate binding).
For `Nc1ncnc2c1nc(Br)n2[C@@H]1O[C@@H]2COP(=O)(O)O[C@H]2[C@H]1O`, “Km or Ki” read 68.8 µM (PDE6; cyclic nucleotide hydrolysis, substrate or inhibitor, isothermal titration calorimetry).
`N[C@@H](CCC(=O)O)C(=O)O` has a Km of 1000 to 3000 µM (vesicular glutamate transporter; substrate).
For `O=c1c2nc(Br)n([C@@H]3O[C@@H]4COP(=O)(O)O[C@H]4[C@H]3O)c2nc2[nH]c(-c3ccccc3)cn12`, “Km or Ki” read 8.84 µM (PDE4D; cyclic nucleotide hydrolysis, substrate or inhibitor, isothermal titration calorimetry).
With `CCC1=C(O)c2c(oc(-c3csc4ccccc34)cc2=O)C(CC)(CC)C1=O` the inhibition was 78% (Tubulin alpha-1B chain/TUBB2B (Bos taurus, UniProt P81947+Q6B856); concentration not given).
Under “Km or Ki”, `Nc1nc2c(nc(Br)n2[C@@H]2O[C@@H]3COP(=O)(O)O[C@H]3[C@H]2O)c(=O)[nH]1` is recorded as 62.8 µM (PDE1C; cyclic nucleotide hydrolysis, substrate or inhibitor, isothermal titration calorimetry).
`Nc1ncnc2c1ncn2[C@@H]1O[C@H](COP(=O)(O)OP(=O)(O)OP(=O)(O)O)[C@@H](O)[C@H]1O` has a Km of roughly 3 µM (pcrA (Geobacillus stearothermophilus, UniProt P56255); substrate).

A few entries again:
With `O=C(O)c1cc2cc(Br)ccc2oc1=O` the inhibition was 100% (Ionotropic glutamate receptor NMDA 1/2D (Rattus norvegicus, UniProt P35439+Q62645); concentration not given).
For `O=c1c2nc(Br)n([C@@H]3O[C@@H]4COP(=O)(O)O[C@H]4[C@H]3O)c2nc2[nH]c(-c3ccccc3)cn12`, “Km or Ki” read 8.84 µM (PDE4D; cyclic nucleotide hydrolysis, substrate or inhibitor, isothermal titration calorimetry).
Under “Km or Ki”, `Nc1nc2c(ncn2[C@@H]2O[C@@H]3COP(=O)(O)O[C@H]3[C@H]2O)c(=O)[nH]1` is recorded as 2.01 µM (PDE5; cyclic nucleotide hydrolysis, substrate or inhibitor, isothermal titration calorimetry).
For `CC(=O)O`, the Km was 14000 ± 610 µM (ADP-forming acetyl-CoA synthetase (Entamoeba histolytica, UniProt C4LUV9); substrate).
